# Published values from different studies.
# ± marks the error that the study gave.
SMILES,target,test,test system,conditions,quantity,value
CC(=O)N[C@H](C(=O)N[C@@H](CC(=O)O)C(=O)N[C@H](CCCCN)C(=O)N[C@@H](C)C(=O)N[C@H](C=O)CC(=O)O)C(C)C,"Caspase-2, circularly permuted (Homo sapiens, UniProt P42575)","enzyme activity, inhibitor",,"pH 6.5, 37 °C, together with: Z-VDVAD-AFC",Ki,49 µM
CCOc1cncc(-c2ccc(NC(=O)C(CC)c3ccnc(NS(=O)(=O)C4CC4)n3)nc2)n1 (stereo not drawn),"Ctps1 (Mus musculus, UniProt P70698)",cell viability,CTPS-null Jurkat with mouse CTPS1,3 days,IC50,0.018 µM
N=C(N)NCCCC(N)C(=O)NCC(=O)NC(CCCCNC(=N)NCCCSCC1OC(n2cnc3c(N)ncnc32)C(O)C1O)C(N)=O (stereo not drawn),"PRMT1 (Homo sapiens, UniProt Q99873)",inhibitor,,,IC50,5.6 ± 0.1 µM
N[C@@H](Cc1c[nH]c2ccc(OCc3ccccc3-c3ccco3)cc12)C(=O)O,"SLC7A5 (Homo sapiens, UniProt Q01650)","transporter uptake, inhibitor, radiometric",,,IC50,32 µM
COc1ccc(S(=O)(=O)NCc2c[nH]nc2-c2cccs2)cc1,"myosin A (Eimeria tenella, UniProt U6KUP6)","actin-activated ATPase, inhibitor",,"upper bound, enzyme-limited",IC50,< 0.1 µM
CC(CCC(=O)NCC(=O)O)C1CCC2C3CCC4CC(O)CCC4(C)C3CC(O)C12C (stereo not drawn),"SHMT2 (Homo sapiens, UniProt P34897)","serine to glycine conversion, inhibitor",,"pH 7.5, 1% DMSO, together with: L-serine 1 mM, THF 0.2 mM",IC50,0.83 µM
COc1cc2nccc(Oc3ccc(NC(=O)NC4CC4)c(Cl)c3)c2cc1C(N)=O,"FLT4 (Homo sapiens, UniProt P35916)","enzyme activity, inhibitor",,,IC50,0.0015 µM
Cc1ccc(CNC(=O)[C@H](CCc2ccccc2)NC(=O)[C@H](CCc2ccccc2)NC(=O)Cc2cccc(Oc3ccccc3)c2)cc1,"Proteasome subunit beta type-3/PSMB7 (Homo sapiens, UniProt P49720+Q99436)",inhibitor,,,IC50,> 100 µM
CC[C@H](C)[C@H](NC(=O)[C@@H](NC(=O)[C@H](CSC(C(=O)O)c1ccccc1[N+](=O)[O-])NC(=O)[C@H](CCCCN)NC(=O)[C@@H](NC(=O)[C@H](CCCCN)NC(=O)[C@H](CO)NC(=O)[C@H](CCCCN)NC(=O)[C@H](CCCCN)NC(=O)[C@@H](N)CCCCN)[C@@H](C)O)C(C)C)C(=O)N[C@@H](CCSC)C(=O)O (stereo partly drawn),"Protein farnesyltransferase (Rattus norvegicus, UniProt Q02293+Q04631)",inhibitor,,pH 7.5,IC50,4.7 ± 1.8 µM
COc1ccc(S(=O)(=O)N(CC(=O)O)c2ccc(N(CC(=O)O)S(=O)(=O)c3ccc(OC)cc3)cc2)cc1,"Kelch-like ECH-associated protein 1, Kelch domain (KEAP1, Homo sapiens, UniProt Q14145)","Keap1-Nrf2 interaction, inhibitor, fluorescence polarisation",,,IC50,1.25 µM
CN(C)C(=O)C1CN1S(=O)(=O)c1ccc2cc(N(C)C)ccc2c1 (stereo not drawn),"PDIA3 (Homo sapiens, UniProt P30101)","enzyme activity, inhibitor, absorbance",,pH 7.6,IC50,11.8 µM
O=C(O)C(CO)NCc1cc(Cl)c(OCc2cccc(-c3ccccc3)c2Br)cc1OCc1cccnc1 (stereo not drawn),"CD28/CD80 (Homo sapiens, UniProt P10747+P33681)","PD-1/PD-L1 interaction, inhibitor, ELISA",,,IC50,> 10 µM
CC(=O)N[C@H](C(=O)N[C@@H](CCCCN)C(=O)N[C@H](C=O)CC(=O)O)C(C)C,"Caspase-2 (Homo sapiens, UniProt P42575)","enzyme activity, inhibitor, fluorescence",,pH 6.5,Ki,> 100 µM
NCC(=O)Oc1ccc2c(=O)c(Oc3ccccc3)coc2c1,"CDK9 (Homo sapiens, UniProt P50750)","enzyme activity, inhibitor, ATP luminescence",,,IC50,3.9 µM
COc1ccc(CCCN[C@@H]2CCC[C@H]2CN[C@H]2CCC[C@@H]2CNCCCCN[C@@H]2CCC[C@H]2CN)cc1,"MAOA (Homo sapiens, UniProt P21397)","enzyme activity, inhibitor",,together with: tyramine 50 µM,Ki,> 500 µM
[64Cu+2].c1cnc(CNCc2ccc(CN3CCCN4CCNCCCN(CC4)CC3)cc2)nc1,CXCR4,,"NOD/SCID mouse, U87 xenografts, small intestine",90 min,tissue uptake,2.16 ± 0.24 %ID/g
NS(=O)(=O)c1ccc(/N=N/c2ccc(O)cc2)cc1,"GLO1 (Homo sapiens, UniProt Q04760)","enzyme activity, inhibitor",,,IC50,3.03 µM
COc1cc2ncnc(Nc3ccc(Oc4ccccc4)cc3C)c2cc1OC,"Dual specificity mitogen-activated protein kinase kinase 1, phosphorylated (MAP2K1, Homo sapiens, UniProt Q02750)","ATP-biotin probe binding, inhibitor, probe-labelling competition",,active MEK1,IC50,> 10 µM

# A few entries again:
SMILES,target,test,test system,conditions,quantity,value
CN(C)C(=O)C1CN1S(=O)(=O)c1ccc2cc(N(C)C)ccc2c1 (stereo not drawn),"PDIA3 (Homo sapiens, UniProt P30101)","enzyme activity, inhibitor, absorbance",,pH 7.6,IC50,11.8 µM
O=C(O)C(CO)NCc1cc(Cl)c(OCc2cccc(-c3ccccc3)c2Br)cc1OCc1cccnc1 (stereo not drawn),"CD28/CD80 (Homo sapiens, UniProt P10747+P33681)","PD-1/PD-L1 interaction, inhibitor, ELISA",,,IC50,> 10 µM
